# Assay results from different studies.
# ± gives the spread as reported.
Substance,assay,test system,setting,how to read,endpoint,value
CC(C(=O)NCC(=O)NCC(CNC(=O)CNC(=O)C(C)N1CCN(CC(=O)[O-])CCN(CC(=O)[O-])CCN(CC(=O)[O-])CC1)(CNC(=O)CNC(=O)C(C)N1CCN(CC(=O)[O-])CCN(CC(=O)[O-])CCN(CC(=O)[O-])CC1)CNC(=O)CNC(=O)C(C)N1CCN(CC(=O)[O-])CCN(CC(=O)[O-])CCN(CC(=O)[O-])CC1)N1CCN(CC(=O)[O-])CCN(CC(=O)[O-])CCN(CC(=O)[O-])CC1.[Gd+3].[Gd+3].[Gd+3].[Gd+3] (stereo not shown),,human plasma,"pH 7.4, 37 °C, 1.5 T",,r1 relaxivity per Gd,11.8
CNC(=O)c1ccc(-c2cnn3ccc(C(=O)N(C)c4ccc(Cl)c(C(=O)OC)c4)cc23)cc1,,"neonatal calf, infected, with diarrhoea, plasma","oral, 10 mg/kg, 0 to 12 h",,AUC(0-t),0.147 µM·h
[123I]c1cncc(OC[C@@H]2CCN2)c1,SPECT,"human, low plasma nicotine, Pons",intravenous,reference: plasma,tissue/plasma ratio,29.7
O=C1[O][Pt]2([NH][C@@H]3CCCC[C@H]3[NH]2)[O]C1=O,,human advanced solid tumours,"intravenous, every 2 weeks, added: FOLFOX",,MTD,85 mg/m²
O=C(c1ccc(F)c(F)c1Nc1ccc(I)cc1F)N1CC(O)([C@@H]2CCCCN2)C1,item: retinal detachment,human patients,"oral, 1 mg/kg, dose expansion, grade G3",,treatment-related adverse events,0%
CCCCCOc1ccc(-c2ccc(-c3ccc(C(=O)N[C@H]4C[C@@H](O)[C@@H](O)NC(=O)[C@@H]5[C@@H](O)[C@@H](C)CN5C(=O)[C@H]([C@@H](C)O)NC(=O)[C@H]([C@H](O)[C@@H](O)c5ccc(O)cc5)NC(=O)[C@@H]5C[C@@H](O)CN5C(=O)[C@H]([C@@H](C)O)NC4=O)cc3)cc2)cc1,population PK model,"patients, typical weight sample D kg","intravenous, dose not given",,peripheral volume of distribution,22.4 L
CCCCCCCCCCCC[N+](C)(C)Cc1ccccc1,substrate depletion,human liver microsomes,"0.5 µM, 0 to 3 h, 37 °C, added: NADPH",,intrinsic clearance,1.09 mL/h/mg protein
vancomycin,pseudoallergic reaction,male CBA mouse,"intravenous, maximum tolerated dose, added: concanavalin A",reference: control group,inflammation reaction index,52.1%
Cc1cnc(C(=O)N[C@H]2CCCCC/C=C\[C@@H]3C[C@@]3(C(=O)NS(=O)(=O)C3CC3)NC(=O)[C@@H]3C[C@@H](Oc4nc5ccccc5c5ccccc45)CN3C2=O)cn1,,"healthy human volunteers, plasma","oral, dose not given, warfarin interaction study",reference: given without warfarin,AUC(0-24),5300 ng·h/mL
O[C@H]1CCCN[C@@H]1CCCn1cnc2c(Cl)c(Cl)ccc21,,"healthy human volunteers, plasma","oral, 200 mg, day 1, multiple ascending dose",,MRT,7.2 h
CC(C)C[C@H](NC(=O)[C@H](CCC(=O)O)NC(=O)[C@H](CCC(=O)O)NC(=O)[C@H](CC(=O)O)NC(=O)[C@H](CCC(=O)O)NC(=O)[C@H](CCC(=O)O)NC(=O)[C@H](CCC(=O)O)NC(=O)[C@@H](N)CC(=O)O)C(=O)O,,"rat, CSF","intranasal, 5.5 mg/kg, 180 min",,concentration,0.264 ng/mL
C=C1C(=O)O[C@@H]2[C@H]1CC[C@H](C)[C@@]1(O)C=CC(=O)[C@@]21C,propidium iodide flow cytometry,"primary splenocytes, BALB/c mouse","48 h, 10% fetal calf serum",,CC50,1.2 ± 0.8 µg/mL
CSCC[C@@H]1NC(=O)[C@H](CC(=O)O)NC(=O)CNC(=O)[C@H](CCCNC(=N)N)NC(=O)[C@H](C)NC(=O)[C@H](CCC(=O)O)NC(=O)[C@H](CCCNC(=N)N)NC(=O)[C@@H]2CSSC[C@@H]3NC(=O)[C@H](CO)NC(=O)[C@H]([C@@H](C)O)NC(=O)[C@@H]4CCCN4C(=O)[C@H](C)NC(=O)[C@H](Cc4c[nH]c5ccccc45)NC(=O)[C@H](CC(=O)O)NC(=O)CNC(=O)[C@H](CCCNC(=N)N)NC(=O)CNC(=O)[C@H](CCC(N)=O)NC(=O)[C@@H]4CCCN4C(=O)[C@@H](NC(=O)CNC(=O)C(C)F)CSSC[C@H](NC(=O)CNC(=O)[C@H](C)NC(=O)[C@H](CC(C)C)NC(=O)[C@H](CSSC[C@@H](C(=O)NCC(N)=O)NC(=O)[C@H]([C@@H](C)O)NC(=O)[C@H](CCCNC(=N)N)NC(=O)[C@@H]4CCCN4C1=O)NC(=O)[C@H](CC(=O)O)NC(=O)[C@H](CO)NC(=O)[C@H](CC(=O)O)NC(=O)[C@H](CCC(N)=O)NC(=O)[C@H](CO)NC3=O)C(=O)N[C@@H](C(C)C)C(=O)N2 (stereo partly shown) [fluorine-18 labelled],,"nude mice U-87 MG xenograft, spleen","intravenous, 1 h",,tissue uptake,0.47 ± 0.04 %ID/g
Cc1cccc(Nc2ccc3c(c2)C(c2ccccc2F)=NC(C)C(=O)N3)c1 (stereo not shown),shake flask,PBS,"24 h, pH 7.4",,solubility,3.52 µM
Cc1c(P(=S)(c2ccccc2)c2ccccc2)n2ccccc2[n+]1C/C=C/c1ccccc1,,"mouse, plasma","intraperitoneal, 10 mg/kg, 8 h",,plasma concentration,99 ng/mL
CN[C@@](C)(C[18F])C(=O)O,,"SCID mouse U87 xenograft, liver","120 min, post injection",,tissue uptake,5 ± 0.8 %ID/g
CC[C@H](C)[C@H](NC(=O)[C@@H](N)CCCNC(=N)N)C(=O)N[C@H](C(=O)N1CCC[C@H]1C(=O)N[C@@H](C)C(N)=O)C(C)C,,"human, plasma","intravenous, 0.15 mg/kg, single dose, healthy volunteers",,MRT,0.09 h
CC(=O)N[C@H](CCCCNC(=O)C(C)F)C(=O)N[C@@H](CS)C(=O)N[C@@H](CS)C(=O)N[C@@H](CCC(=O)O)C(=O)N[C@@H](Cc1c[nH]cn1)C(=O)N[C@H](Cc1ccccc1)C(=O)N[C@@H](CCCNC(=N)N)C(=O)N[C@@H](Cc1c[nH]c2ccccc12)C(=O)N[C@@H](CS)C(=O)N[C@@H](CCCNC(=N)N)C(=O)N1CCC[C@H]1C(=O)N[C@H](C(N)=O)C(C)C (stereo partly shown) [fluorine-18 labelled],,"C57BL/6 mice, male, B16-F10 tumour, stomach","intravenous, 4 h",,tissue uptake,0.31 ± 0.07 %ID/g
C/C=C1/C[C@@H](C)[C@](O)(CO)C(=O)OCC2=CC[N@@+]3([O-])CC[C@@H](OC1=O)[C@@H]23,,human whole blood,"1000 ng/mL, 60 min, 37 °C",,blood-to-plasma ratio,0.736
C[N+](C)(C)[C@@H](Cc1c[nH]c(=S)[nH]1)C(=O)[O-],,"rat treated with 1,25-dihydroxyvitamin D3, heart",intravenous,reference: untreated control rats,decrease in tissue partition coefficient,50.8%
COc1cccc2c1cc([N+](=O)[O-])c1c(C(=O)O)cc3c(c12)OCO3,,"Sprague-Dawley rat, male, isolated perfused kidney","50 µM, kidney A",,renal clearance,0.00142 mL/min
CCCCCCCCCCCC(=O)NCCCC[C@H](NC(=O)[C@@H](NC(=O)[C@@H](NC(=O)[C@H](C)NC(=O)[C@H](C)NC(=O)[C@H](CCCCN)NC(=O)[C@H](CCCCN)NC(=O)[C@H](CS)NC(=O)[C@H](CCCCN)NC(=O)[C@@H]1CCCN1C(=O)[C@H](CC(C)C)NC(=O)[C@@H](NC(=O)[C@H](Cc1c[nH]c2ccccc12)NC(=O)[C@H](CC(C)C)NC(=O)[C@@H](N)CCCCN)C(C)C)C(C)C)C(C)C)C(N)=O,three-compartment model,"Sprague Dawley rat, plasma","intravenous, 2.5 mg",,fast compartment volume,12 mL
